Published values collected from several papers.
Every numbered part comes from another study and shows a few of its results, in no order. Positions count from the first letter of the parent shown.

Sample 1 — technique: RNA Bind-n-Seq; molecule type: RNA; matrix: in vitro; tested at: 1 µM; setting: whole 134-nt RNA, ends assumed; with: 150 mM KCl; baseline: input library; reading: higher = stronger binding; quantity: log2 enrichment
Target: Ras GTPase-activating protein-binding protein 1, C-terminal RGG region (G3BP1, Homo sapiens, UniProt Q13283)
Chain of UniProt Q13283 (whole entry, looked up): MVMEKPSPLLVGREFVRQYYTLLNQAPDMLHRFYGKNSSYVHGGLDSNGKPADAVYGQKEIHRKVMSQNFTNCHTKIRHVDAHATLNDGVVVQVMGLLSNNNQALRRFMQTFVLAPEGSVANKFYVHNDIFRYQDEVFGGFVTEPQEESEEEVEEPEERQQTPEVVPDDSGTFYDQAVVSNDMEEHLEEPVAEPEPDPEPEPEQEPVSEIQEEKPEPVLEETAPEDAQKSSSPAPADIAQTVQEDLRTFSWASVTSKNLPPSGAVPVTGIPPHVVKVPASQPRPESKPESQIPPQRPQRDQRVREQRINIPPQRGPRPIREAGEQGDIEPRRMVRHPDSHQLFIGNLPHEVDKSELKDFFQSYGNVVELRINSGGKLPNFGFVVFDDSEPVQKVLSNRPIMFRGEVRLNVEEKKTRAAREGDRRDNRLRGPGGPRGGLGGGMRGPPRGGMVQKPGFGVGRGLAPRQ
Shared flanks, not repeated: GGGAGUUCUACAGUCCGACGAUC … UGGAAUUCUCGGGUGUCAAGG
UGGGAGGUGGAUUUUGUUUAUUUUUUUAGCUCAUUUCCAGGGGUGGGAAUUUUUGUUUAAUAUGUGUCAUGAAUAAAGUUGUUUUUGAAA: 4.06
CCUGUGCUACACAUCGUAUGUACCGAAUCGGGGUGGGGAAAAAAAGGGGAAAAAAAGGGGAAAGUAUUAUGUUACGCCGUUCGGAUCUGC: -0.136
AGUCCUGUGCUACACAUCGUAUGUACCGAAUCAAAUUUUUUUAAACCCAAAUUUAAAAAAGUAUUAUGUUACGCCGUUCGGAUCUGCACU: -1.66
CCUGUGCUACACAUCGUAUGUACCGAAUCGGGCCCCCCGGGGCCCCCCGGGGCCCCCCGGAAAGUAUUAUGUUACGCCGUUCGGAUCUGC: -1.92
ACCAUGCAGGUGGGAAACUUUGGGAAGUGGGGCAAGGGGGGGAUAGGGAGGGGGGUAACACUUUGGGAACAGGUGGUCCCAGGUCGUUUC: -0.881
UCCUGUGCUACACAUCGUAUGUACCGAAUCGGGGUUUUUUGGUUUUUUGGGUUUUUUGGAAAGUAUUAUGUUACGCCGUUCGGAUCUGCA: -0.684
UGGGCCUGGUGGCAUGCGGGGAGGAAGAGGUGGCCUCAUGGAUCGUGGUGGUCCCGGUGGAAUGUUCAGAGGUGGCCGUGGUGGAGACAG: 1.9
UCCUGUGCUACACAUCGUAUGUACCGAAUCGGGGUUUUUUUGGGGAGGGGAAAAAGGGGAAAGUAUUAUGUUACGCCGUUCGGAUCUGCA: 1.36
AAGUCCUGUGCUACACAUCGUAUGUACCGAAUCGGGGCCCGGGGCCCGGGCCCGGGGAAAGUAUUAUGUUACGCCGUUCGGAUCUGCACU: -2.46
UUAAGUGUAUUGGAGCCCCAAGUUCUCAAUUAUUUGAGCCUCCGGGCGACAGAGCAAGAAAAGGUGAGUGGAUAGCGCAGGCAUAUUGGU: -0.258
UGGCGCUGUCCUGGACUUGAUGGGGGAUGAAGCCCAGAACCUGACGAGGGGCCGGCAGCAGCUCAAGUGGUGAGUGAUCGAGUGAGCCGC: -0.981
AAGUCCUGUGCUACACAUCGUAUGUACCGAAUCGGGGCCCGGGGCCCGGCCCGGGGAAAGUAUUAUGUUACGCCGUUCGGAUCUGCACUU: -2.11
UAAAUUUAGAGGAGGAUCUGAUGGAUAUGGCAGUGGACGUGGAUUUGGGGAUGGCUAUAAUGGGUAUGGAGGAGGACCUGGAGGUGGCAA: -0.483
UUCACACCAAGCUGGGGAACAUCAAGACCUUAAACCUGGCAGGCAACCUCCUAGAGAGUCUGAGUGGCCUGCACAAGCUCUACUCACUGG: -1.93

Sample 2 — technique: RNA Bind-n-Seq; molecule type: RNA; matrix: in vitro; tested at: 365 nM; baseline: no-protein control; reading: higher = stronger binding; quantity: RBNS enrichment (R)
Target: RNA binding protein fox-1 homolog 2, RRM domain, GST-SBP tag (RBFOX2, Homo sapiens, UniProt O43251-10, residues 100-194)
Setting: natural RNA segment, single round, ends assumed
Shared flanks, not repeated: GGGAGUUCUACAGUCCGACGAUC … UGGAAUUCUCGGGUGCCAA
Construct (chain): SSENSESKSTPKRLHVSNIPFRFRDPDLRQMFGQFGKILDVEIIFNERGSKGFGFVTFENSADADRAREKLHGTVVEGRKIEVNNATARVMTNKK
ACAGCUACCUGAGACGGGCAUCGCAGGAGUCUCUGCCACCCACUCAGGAUUGGGAAUUGUCUUUAGUGCCGGCUGUGGAGCAAAAGGCAGCUCACCCCUGGGCAGGCGGU: 0.326
CUCUAUUUUGUUCUUAAAUAAGCAAGAAAAUUGCACGUUGUAUUCACUGACGACAACAAAAGCUUAGUUUCUAGCAUGAGAGGCUAAACAGCCCCACACAGCUCUGAUUC: 0.69
GGGGCGCCUGCCUCCCUGCUCCUCUGUCCUCGCACAGCGAACCUGGGCUCCUGCCCAGGACAGGCACCAGGGUCAUGGCCUGGGACCUGGACACUGGCCCCUCCACCCUC: 0.462
GACAGACCGGGCUGGAGGGUGACCUUGGCUGUGUGCGUCCCAGCAAAAGAGCUCUGGCCCGCAUCUCGCUGUGCCCUGAAGGGGGAUGAAGGGCGAUGCCUCGCCCGAGG: 0.385
UUUAAAAAACAAACCUGGCUCUUACCUUUGAUCUUUUCUUCCCCAGAAAUAGUAAACUUGCAGCUGCCCCUAAUGCAGCAUAUUUUUCUUACCAAAGGAGUCUUCAGCCC: 0.669
GCUUGCAGAAGCCAUCCAUUCACUCCUGGGGUGCAGGGCACGCAAGAGAGCUUCCCAUUGCUUCUGCUCUCCUCAGAGGUCCCGGGCUGGAUGGAGGCUGGUACUUACCC: 1.04
GGCCUGCAGGAGAGGCUGAGACCAGCCCACCCAGCCAGUGGUCGAGCACUGCCCCGCCGCCAAAGUCUGCAGAAUGUGAGAUGAGGUUCUCAAGGUCACAGGCCCCAGUC: 1.56
UUUGCUUGGCUCUCAUUCUCUCUUGUCUGCUGCCAUGUAAGAUGUGCCUUUUGCCUUCCACCAUGAUUGUGAGGCCUCCCAGCCACAUGGAACUGUGAGUUCAUUAAACC: 0.334
CAUUGUCCCCUGCCUCCUCUGUAAUUUUUGCCCCUUCCAGGGUACGGAAUGUGUCAGUGCAUUUUCUCCUUGCUGAGAGUCUCAGCUCCAAUCUCUUCAUAAUUUUGUUC: 0.659
GGUAGUGACUGAGAUGUAAAAAUAGAUUUUAGAAUUAAAACAAAAUCCAAGUCCUCACACCCCUGUCAUCCCAGGAGAUCUUUCCUUGUGGUGGUUUCUGUGAGAAUUGG: 0.543
GUUGCUGCUCCUGCUUCACCUGUGGCAGACAUCGCUAAUCGAUCACAGCACUCUAUCUCUCAGAGUCUGGAUAAGAAUUCCCAUGCUUGUUGGGACGAGACCAACUGUGC: 0.716
UUCUGGAAGUUGAUAGUGAACAGUUCUCCGUGUAACAGUGACUCUCCAUGAAAUUCCGUUUCCUCUGUUAACCGUCACUGAGCACUCUUCCUCGGGGCUCUCUGCUGCUC: 0.227

Sample 3 — target: CCND3, cyclin fold, Cln2 fusion (human); technique: yeast growth competition, sequencing; matrix: yeast; setting: weak parent motif; baseline: not given; reading: higher = stronger binding; quantity: normalised enrichment score
Starting sequence: PKMYT1 docking peptide (human); SFEPRNLLSLFED; partner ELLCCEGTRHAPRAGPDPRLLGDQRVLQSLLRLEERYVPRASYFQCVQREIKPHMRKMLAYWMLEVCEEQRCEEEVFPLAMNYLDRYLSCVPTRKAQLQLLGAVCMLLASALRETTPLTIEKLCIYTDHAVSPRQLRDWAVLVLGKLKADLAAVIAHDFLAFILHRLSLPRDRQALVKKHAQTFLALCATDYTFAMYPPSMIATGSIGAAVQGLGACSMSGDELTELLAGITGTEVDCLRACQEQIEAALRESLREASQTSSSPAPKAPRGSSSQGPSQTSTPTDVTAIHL
SFEPRNLLSLFEM [D13M]: 0.143
SFEPRNRLSLFED [L7R]: 0.127
SFEPKNLLSLFED [R5K]: -0.0688
SFEPRNLLFLFED [S9F]: 0.0604
SFEPRNLLSLGED [F11G]: 0.0685
SPEPRNLLSLFED [F2P]: 0.0859
SFELRNLLSLFED [P4L]: 0.0614
SFEPRNLNSLFED [L8N]: 0.136
SFEFRNLLSLFED [P4F]: 0.118
SFEPRNLFSLFED [L8F]: 0.0697
SFAPRNLLSLFED [E3A]: 0.0295
SGEPRNLLSLFED [F2G]: 0.215
SFYPRNLLSLFED [E3Y]: 0.17
VFEPRNLLSLFED [S1V]: 0.164
SFEPRNLLSLFEL [D13L]: 0.102
HFEPRNLLSLFED [S1H]: -0.0318
SFEPNNLLSLFED [R5N]: 0.109
SFEPRNLYSLFED [L8Y]: 0.143
SFEPRNLLSLWED [F11W]: 0.161
SFEPRNLLWLFED [S9W]: 0.116
SFEPRCLLSLFED [N6C]: 0.13
SFEPRDLLSLFED [N6D]: 0.0851

Sample 4 — technique: DHFR PCA, deep sequencing; matrix: yeast; with: (+)-ABA 0 µM; baseline: wild-type fitted maximum; reading: higher = stronger binding; quantity: relative binding score
Target: ABI1, truncated, D143A, DHFR fusion (Arabidopsis thaliana)
Setting: methotrexate growth selection, single substitutions
Starting sequence: PYL1, truncated, DHFR fusion (Arabidopsis thaliana); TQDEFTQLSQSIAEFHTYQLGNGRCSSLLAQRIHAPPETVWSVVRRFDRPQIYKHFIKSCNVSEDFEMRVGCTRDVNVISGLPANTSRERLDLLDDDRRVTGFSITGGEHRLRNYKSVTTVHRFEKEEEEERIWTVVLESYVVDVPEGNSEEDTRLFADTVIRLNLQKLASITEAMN
Q2M: 55.2%
I133F: 4.99%
T6F: 38.3%
G108T: -4.55%
S63N: 23.1%
V40T: -0.85%
D96P: -8.21%
L8Q: 6.11%
P37Y: 4.61%
G71E: -1.15%
G107H: 16.7%
N85C: 50%
V78F: 94.3%
F5I: 24.8%
C25A: 21.6%
N22I: 19.7%
T119R: -3.77%
C25S: 2.3%
Y53S: 0.148%

Sample 5 — technique: competition protein-binding microarray; molecule type: double-stranded DNA, one strand shown; matrix: in vitro; tested at: 2 µM; with: Pho4 competitor, 0.05 µM; reading: higher = stronger binding; quantity: fluorescence intensity; shared flanks, not repeated: … GTCTTGATTCGCTTGACGCTGCTG
Target: Centromere-binding protein 1, full length, His-tagged (CBF1, Saccharomyces cerevisiae, UniProt P17106, residues 1-351)
Chain of UniProt P17106 (whole entry, looked up): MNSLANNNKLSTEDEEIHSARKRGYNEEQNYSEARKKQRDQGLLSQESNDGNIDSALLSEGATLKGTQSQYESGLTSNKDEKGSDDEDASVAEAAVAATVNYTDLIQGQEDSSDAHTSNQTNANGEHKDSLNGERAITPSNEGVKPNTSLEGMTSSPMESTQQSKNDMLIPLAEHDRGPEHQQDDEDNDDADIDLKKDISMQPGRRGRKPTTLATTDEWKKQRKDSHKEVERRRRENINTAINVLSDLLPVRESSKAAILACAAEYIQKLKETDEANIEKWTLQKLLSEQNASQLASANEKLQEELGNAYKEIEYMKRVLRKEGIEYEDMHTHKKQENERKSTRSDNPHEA
Setting: whole 60-bp probe, lowest competitor level
CATAAGGACCCCCATATCGTGATGGTCATTGATGAC: 103 a.u.
AAATTACTAAGTTTTCACGTGCCGTACCCCGTATGA: 1230 a.u.
GGCTCGCTAGGCGGCTACATGACAAAATGCCCAAGT: 54.1 a.u.
AAAGCGGTAATTTGATAGGTGGGTGCAGATATCTAT: 68.6 a.u.
CTAACGAAGGTTTTTCACGTGTACTACAAGCCAAGT: 822 a.u.
CCACATAAACATTCACACGTGGAACATGTACCAAAA: 708 a.u.
TGCGCAACAACTTTTCACGTGGAATTATGTCTAGAA: 756 a.u.
CAGGAACCCATAAGTCAGCTGAGCCTGTGTCTAACA: 132 a.u.
GCGGGTATTCCCCCTGGTGTGATGAACATTGTATCC: 74.4 a.u.
TGCGCAACAACTTTACACGTGTTTTTATGTCTAGAA: 1870 a.u.
CGGGGTTAAGTTTGGAGTGTGGGTGGCTTGCAGCAG: 73 a.u.
AAATTACTAAGTTGTCACCTAACTTACCCCGTATGA: 76.6 a.u.
GACAAGGACATTTTGCACGTTGACATTCCGGTAACT: 115 a.u.
CCTTTGTCTGCTGTGTATGTGATATGGAAAACTAAC: 95.9 a.u.
TGCGCAACAACTTGCGTAGTGGGTGTATGTCTAGAA: 63.6 a.u.
AGTGGGATCGTTCGTCACAGCGTCGATAGGGTAAGG: 56.6 a.u.
GGCGTTACTGATTTATACGTGGGTATCTACGATGAT: 79.8 a.u.
CGGGGTTAAGTTTGAAGGGTGGGTGGCTTGCAGCAG: 75 a.u.
CCTCTTTTAATATGTAACGTGTCGGTTCTATTTATC: 239 a.u.
GTCTTGTCTCATTGAACCGTGGGTGTCCCCACTTCA: 72 a.u.
TGCGCAACAACTTTTCACGTGCATTTATGTCTAGAA: 1260 a.u.
CTTTCCCGATCTTGCAGCGTGGGTGTAGCACATTTG: 80.2 a.u.
ACATCTGTCTGGTTTGACGTGACAAATACCTTTCTT: 93.8 a.u.
CCTTTGCAGTAGCATCACATGAATCGCGAAAGTCTA: 261 a.u.
GTCTTGTCTCATTTTCACGTGAAGTTCCCCACTTCA: 582 a.u.

For quick reference, copied from above (sample 4):
G107H: 16.7%
D96P: -8.21%
T6F: 38.3%
G108T: -4.55%
N85C: 50%
I133F: 4.99%
F5I: 24.8%
V78F: 94.3%
N22I: 19.7%
G71E: -1.15%
P37Y: 4.61%
V40T: -0.85%
Q2M: 55.2%
